Measurements gathered from unrelated publications.
Parts stem from different laboratories: compare values within a part only.
UniProt Q9H2X6, sequence (whole entry, looked up): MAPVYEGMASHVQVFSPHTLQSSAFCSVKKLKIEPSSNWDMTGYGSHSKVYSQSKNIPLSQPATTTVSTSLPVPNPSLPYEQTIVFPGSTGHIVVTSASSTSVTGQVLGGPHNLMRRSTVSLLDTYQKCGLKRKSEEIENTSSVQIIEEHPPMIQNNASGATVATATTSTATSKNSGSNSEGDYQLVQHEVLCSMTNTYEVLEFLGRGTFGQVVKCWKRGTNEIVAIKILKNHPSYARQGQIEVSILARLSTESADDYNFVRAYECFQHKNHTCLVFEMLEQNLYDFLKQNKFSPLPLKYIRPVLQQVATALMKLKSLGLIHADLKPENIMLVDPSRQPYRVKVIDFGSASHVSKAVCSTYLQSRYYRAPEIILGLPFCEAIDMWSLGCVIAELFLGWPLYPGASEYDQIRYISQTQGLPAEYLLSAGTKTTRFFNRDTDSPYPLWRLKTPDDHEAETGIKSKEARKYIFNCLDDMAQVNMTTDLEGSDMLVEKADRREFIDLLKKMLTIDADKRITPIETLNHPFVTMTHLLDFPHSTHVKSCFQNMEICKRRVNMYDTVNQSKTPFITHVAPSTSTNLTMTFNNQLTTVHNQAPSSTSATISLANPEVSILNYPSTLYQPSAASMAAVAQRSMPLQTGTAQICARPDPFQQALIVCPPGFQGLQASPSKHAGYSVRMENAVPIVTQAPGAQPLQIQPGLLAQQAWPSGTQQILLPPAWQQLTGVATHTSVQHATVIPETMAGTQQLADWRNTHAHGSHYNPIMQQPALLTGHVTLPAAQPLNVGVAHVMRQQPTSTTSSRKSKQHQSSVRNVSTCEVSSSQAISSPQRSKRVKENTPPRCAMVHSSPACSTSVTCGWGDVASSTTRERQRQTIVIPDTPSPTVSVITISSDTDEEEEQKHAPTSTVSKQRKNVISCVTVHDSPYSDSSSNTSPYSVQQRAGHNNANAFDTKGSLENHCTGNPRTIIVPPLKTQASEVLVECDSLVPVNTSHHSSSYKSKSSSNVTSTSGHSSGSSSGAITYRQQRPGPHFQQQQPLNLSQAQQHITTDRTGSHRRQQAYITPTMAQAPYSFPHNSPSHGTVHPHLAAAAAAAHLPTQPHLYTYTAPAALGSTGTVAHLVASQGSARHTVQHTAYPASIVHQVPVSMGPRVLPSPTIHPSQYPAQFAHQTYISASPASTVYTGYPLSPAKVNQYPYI
UniProt Q14330, sequence (whole entry, looked up): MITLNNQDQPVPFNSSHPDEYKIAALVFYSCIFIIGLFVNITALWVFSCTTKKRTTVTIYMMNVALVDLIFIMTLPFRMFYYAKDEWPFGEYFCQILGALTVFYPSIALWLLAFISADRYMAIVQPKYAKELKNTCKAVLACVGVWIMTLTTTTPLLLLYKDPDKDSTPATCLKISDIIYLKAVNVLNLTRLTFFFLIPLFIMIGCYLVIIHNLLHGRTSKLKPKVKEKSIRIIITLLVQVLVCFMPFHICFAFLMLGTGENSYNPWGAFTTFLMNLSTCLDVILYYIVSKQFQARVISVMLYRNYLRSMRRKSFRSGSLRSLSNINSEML
UniProt P36896, sequence (whole entry, looked up): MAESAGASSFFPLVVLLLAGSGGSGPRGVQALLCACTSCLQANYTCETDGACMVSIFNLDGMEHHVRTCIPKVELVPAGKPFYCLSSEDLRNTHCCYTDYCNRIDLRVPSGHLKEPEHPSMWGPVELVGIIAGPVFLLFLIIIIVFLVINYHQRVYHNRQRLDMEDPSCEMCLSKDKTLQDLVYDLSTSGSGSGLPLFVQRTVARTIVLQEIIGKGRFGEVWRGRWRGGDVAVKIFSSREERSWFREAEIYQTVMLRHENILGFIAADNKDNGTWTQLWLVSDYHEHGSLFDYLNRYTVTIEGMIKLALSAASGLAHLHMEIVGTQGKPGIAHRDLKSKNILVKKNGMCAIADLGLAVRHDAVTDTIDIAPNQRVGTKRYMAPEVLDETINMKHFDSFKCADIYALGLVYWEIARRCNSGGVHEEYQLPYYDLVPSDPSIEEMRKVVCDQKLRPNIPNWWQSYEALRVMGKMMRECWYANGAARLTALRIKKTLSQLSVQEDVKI
UniProt Q13164, sequence (whole entry, looked up): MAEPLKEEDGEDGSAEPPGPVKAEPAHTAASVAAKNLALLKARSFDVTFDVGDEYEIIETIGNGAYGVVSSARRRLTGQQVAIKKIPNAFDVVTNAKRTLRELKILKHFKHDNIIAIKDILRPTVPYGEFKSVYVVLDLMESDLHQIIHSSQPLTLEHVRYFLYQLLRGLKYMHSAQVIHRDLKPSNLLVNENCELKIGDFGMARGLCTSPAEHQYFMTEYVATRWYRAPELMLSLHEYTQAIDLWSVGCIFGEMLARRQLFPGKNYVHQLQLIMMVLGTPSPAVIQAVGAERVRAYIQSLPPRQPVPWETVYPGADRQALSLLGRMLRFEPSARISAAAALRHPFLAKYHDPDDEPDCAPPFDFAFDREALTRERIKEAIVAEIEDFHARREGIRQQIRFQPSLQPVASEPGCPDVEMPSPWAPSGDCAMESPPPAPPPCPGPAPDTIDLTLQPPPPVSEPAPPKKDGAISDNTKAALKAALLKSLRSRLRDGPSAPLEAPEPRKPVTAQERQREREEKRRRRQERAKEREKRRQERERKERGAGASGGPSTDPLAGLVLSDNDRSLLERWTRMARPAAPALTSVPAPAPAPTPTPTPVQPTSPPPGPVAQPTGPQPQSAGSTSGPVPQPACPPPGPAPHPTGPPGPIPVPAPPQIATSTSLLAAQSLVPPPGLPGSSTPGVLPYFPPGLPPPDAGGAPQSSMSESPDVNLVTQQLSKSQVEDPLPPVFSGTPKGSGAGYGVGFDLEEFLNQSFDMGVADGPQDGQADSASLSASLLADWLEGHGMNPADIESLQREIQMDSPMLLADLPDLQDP
UniProt Q00535, sequence (whole entry, looked up): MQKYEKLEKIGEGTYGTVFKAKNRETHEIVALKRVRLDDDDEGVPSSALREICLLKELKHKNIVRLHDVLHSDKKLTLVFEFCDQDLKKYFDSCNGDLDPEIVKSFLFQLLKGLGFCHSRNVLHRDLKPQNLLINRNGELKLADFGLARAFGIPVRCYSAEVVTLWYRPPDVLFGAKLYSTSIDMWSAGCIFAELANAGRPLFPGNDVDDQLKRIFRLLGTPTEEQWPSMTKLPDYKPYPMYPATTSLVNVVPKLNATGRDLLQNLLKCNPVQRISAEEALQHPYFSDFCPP
UniProt O15146, sequence (whole entry, looked up): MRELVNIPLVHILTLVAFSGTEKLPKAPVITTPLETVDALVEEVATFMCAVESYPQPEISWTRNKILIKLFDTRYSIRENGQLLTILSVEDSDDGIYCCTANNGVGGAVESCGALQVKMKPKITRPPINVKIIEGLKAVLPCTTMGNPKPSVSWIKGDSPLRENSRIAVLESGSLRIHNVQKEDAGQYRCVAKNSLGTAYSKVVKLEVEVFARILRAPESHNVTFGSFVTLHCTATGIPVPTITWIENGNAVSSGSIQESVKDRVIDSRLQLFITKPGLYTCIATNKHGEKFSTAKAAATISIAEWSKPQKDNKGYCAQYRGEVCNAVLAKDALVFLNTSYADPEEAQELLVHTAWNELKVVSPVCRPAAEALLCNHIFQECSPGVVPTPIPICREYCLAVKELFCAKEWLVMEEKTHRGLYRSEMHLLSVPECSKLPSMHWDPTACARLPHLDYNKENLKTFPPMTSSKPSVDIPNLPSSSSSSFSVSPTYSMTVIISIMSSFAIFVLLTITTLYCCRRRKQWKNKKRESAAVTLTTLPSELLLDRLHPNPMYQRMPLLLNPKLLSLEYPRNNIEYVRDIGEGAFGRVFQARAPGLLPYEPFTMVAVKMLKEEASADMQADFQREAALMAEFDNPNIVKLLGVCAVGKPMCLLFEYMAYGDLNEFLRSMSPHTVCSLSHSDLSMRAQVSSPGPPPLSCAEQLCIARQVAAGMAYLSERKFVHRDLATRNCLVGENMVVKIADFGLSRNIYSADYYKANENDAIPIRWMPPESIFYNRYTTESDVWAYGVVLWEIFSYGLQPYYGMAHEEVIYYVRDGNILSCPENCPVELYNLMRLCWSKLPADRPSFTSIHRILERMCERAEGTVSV
UniProt Q9NQS5, sequence (whole entry, looked up): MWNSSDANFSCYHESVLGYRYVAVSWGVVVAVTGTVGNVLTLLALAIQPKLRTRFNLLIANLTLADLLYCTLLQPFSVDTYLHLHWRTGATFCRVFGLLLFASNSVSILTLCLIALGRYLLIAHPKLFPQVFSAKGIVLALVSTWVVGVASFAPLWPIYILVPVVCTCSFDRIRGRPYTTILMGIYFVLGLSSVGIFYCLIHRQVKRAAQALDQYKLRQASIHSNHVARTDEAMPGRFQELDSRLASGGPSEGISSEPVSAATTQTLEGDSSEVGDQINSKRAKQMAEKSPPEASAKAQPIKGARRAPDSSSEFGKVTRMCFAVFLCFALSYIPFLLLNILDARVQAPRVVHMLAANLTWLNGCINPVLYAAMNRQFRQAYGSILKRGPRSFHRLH
UniProt Q8N752, sequence (whole entry, looked up): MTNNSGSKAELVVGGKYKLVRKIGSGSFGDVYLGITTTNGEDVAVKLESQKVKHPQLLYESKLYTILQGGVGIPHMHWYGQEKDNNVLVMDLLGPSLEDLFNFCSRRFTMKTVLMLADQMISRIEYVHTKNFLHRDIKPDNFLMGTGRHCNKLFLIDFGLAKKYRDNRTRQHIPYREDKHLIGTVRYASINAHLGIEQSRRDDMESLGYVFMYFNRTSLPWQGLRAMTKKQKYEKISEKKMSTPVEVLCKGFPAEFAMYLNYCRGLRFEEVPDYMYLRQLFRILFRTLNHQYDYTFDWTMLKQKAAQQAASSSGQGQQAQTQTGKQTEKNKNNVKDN

Series 1 — organism: Sarcocystis neurona; read-out: parasite growth; tested at: 10 µM
`CCCC(CCC)C(=O)O` gave an inhibition of -19.5%.
`COc1cc(C(=O)NC2CCCNC2)cc(OC)c1OC` (stereo not drawn) gave an inhibition of -31.2%.
The inhibition of `O=C1NC(=O)C(c2ccccc2)(c2ccccc2)N1` is reported as 6.9%.
For `CCCN[C@H]1CCc2nc(N)sc2C1.Cl`, the inhibition was -39.8%.
For `CC1(C)C[C@@H]1C(=O)N/C(=C\CCCCSC[C@H](N)C(=O)O)C(=O)[O-].[Na+]`, the inhibition was -28.9%.
`CC(C(=O)O)c1cccc(C(=O)c2ccccc2)c1` (stereo not drawn) gave an inhibition of -27.9%.
`CN1CCN(c2c(F)cc3c(=O)c(C(=O)O)cn4c3c2SCC4)CC1.Cl` has an inhibition of -22.9%.

Series 2 — read-out: cell-free assay; technique: competition with immobilised ligand; tested at: 1 µM
SMILES: CCCOc1ccc([C@H]2[C@H](C(=O)O)[C@@H](c3ccc4c(c3)OCO4)CN2CC(=O)Nc2c(CC)cccc2CC)cc1
The remaining binding was 99% (Activin receptor type-1B (ACVR1B, Homo sapiens, UniProt P36896)).
Serine/threonine-protein kinase MAK (MAK, Homo sapiens, UniProt P20794) — remaining binding: 97%.
Muscle, skeletal receptor tyrosine-protein kinase (MUSK, Homo sapiens, UniProt O15146) — remaining binding: 82%.
For Cyclin-dependent kinase 5 (CDK5, Homo sapiens, UniProt Q00535): remaining binding read 100%.
For Casein kinase II subunit alpha (CSNK2A1, Homo sapiens, UniProt P68400): remaining binding read 69%.
The remaining binding was 81% (Protein kinase C theta type (PRKCQ, Homo sapiens, UniProt Q04759)).
It gave 70% for remaining binding (Tyrosine-protein kinase ABL1, non-phosphorylated (ABL1, Homo sapiens, UniProt P00519)).
The remaining binding was 74% (Mitogen-activated protein kinase kinase kinase 3 (MAP3K3, Homo sapiens, UniProt Q99759)).
It gave 97% for remaining binding (Mitogen-activated protein kinase 7 (MAPK7, Homo sapiens, UniProt Q13164)).
For Casein kinase I isoform alpha-like (CSNK1A1L, Homo sapiens, UniProt Q8N752): remaining binding read 92%.
The remaining binding was 82% (Phosphatidylinositol 4-phosphate 5-kinase type-1 alpha (PIP5K1A, Homo sapiens, UniProt Q99755)).
Homeodomain-interacting protein kinase 2 (HIPK2, Homo sapiens, UniProt Q9H2X6) — remaining binding: 66%.
Epidermal growth factor receptor (EGFR, Homo sapiens, UniProt P00533, del747-750/T751S) — remaining binding: 100%.

Series 3 — SMILES: NC(N)=NC(=O)c1nc(Cl)c(N2CCCCCC2)nc1N; read-out: β-arrestin recruitment; action: agonist; technique: PRESTO-Tango; tested at: 10 µM; baseline: untreated
The “fold over basal” was 1.72 (Neuropeptide S receptor (NPSR1, Homo sapiens, UniProt Q6W5P4)).
The “fold over basal” was 0.3 (G-protein coupled receptor family C group 5 member D (GPRC5D, Homo sapiens, UniProt Q9NZD1)).
G-protein coupled receptor 84 (GPR84, Homo sapiens, UniProt Q9NQS5) — “fold over basal”: 0.88.
It gave 0.64 for “fold over basal” (N-arachidonyl glycine receptor (GPR18, Homo sapiens, UniProt Q14330)).
It gave 0.86 for “fold over basal” (Motilin receptor (MLNR, Homo sapiens, UniProt O43193)).
C-X-C chemokine receptor type 3 (CXCR3, Homo sapiens, UniProt P49682) — “fold over basal”: 1.06.

Single results of other studies
`CC(C)S(=O)(=O)c1ccc2nccc(Nc3ccc4sc(C5CCCC5)nc4c3)c2c1` has a remaining activity of 99.5% (Serine/threonine-protein kinase DCLK1 (DCLK1, Homo sapiens, UniProt O15075); kinase activity, inhibitor; 1 µM).

A few entries again (series 2):
For Cyclin-dependent kinase 5 (CDK5, Homo sapiens, UniProt Q00535): remaining binding read 100%.
For Casein kinase II subunit alpha (CSNK2A1, Homo sapiens, UniProt P68400): remaining binding read 69%.
